{"data": "Experimental data gathered from unrelated publications", "note": "Parts stem from different laboratories: compare values within a part only. Changes are numbered by the printed parent chain."}
{"data": "Sample 1", "target": "RING finger protein unkempt homolog, zinc fingers 1-6, GST-SBP tag (UNK, Homo sapiens, UniProt Q9C0B0, residues 30-357)", "method": "RNA Bind-n-Seq", "form": "RNA", "sample": "in vitro", "tested at": "not given", "setting": "RNA with constant flanks, ends assumed", "reference": "input RNA pool", "direction": "higher = stronger binding", "constant ends, left off below": "GGGAGUUCUACAGUCCGACGAUC … CAACAGAGGAUUGAGCAUCA", "Construct (chain)": "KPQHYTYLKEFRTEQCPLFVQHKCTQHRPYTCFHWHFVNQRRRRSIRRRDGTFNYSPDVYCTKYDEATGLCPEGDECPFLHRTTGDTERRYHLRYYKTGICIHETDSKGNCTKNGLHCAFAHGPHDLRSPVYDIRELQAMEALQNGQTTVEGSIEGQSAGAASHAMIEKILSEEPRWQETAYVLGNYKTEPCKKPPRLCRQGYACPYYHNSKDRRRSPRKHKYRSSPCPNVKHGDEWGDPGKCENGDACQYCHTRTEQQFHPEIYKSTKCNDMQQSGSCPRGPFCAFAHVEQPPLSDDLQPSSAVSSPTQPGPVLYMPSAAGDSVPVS"}
{"Strand": "GGCUUCAGCAGUGUGCUCCAGUUCCUAGGACUCUACAAGAAAUCUGGAAAACUUGUAUUCUCCGGAUUGGACAAUGCGGGCAAAACCACUCUUCUUCACAUGCUGAAAGAUGACAGACUA", "bound/input enrichment [ratio]": 0.193}
{"Strand": "CAAGAAACAGAAGAUGCUAUUGGAUAUUGCUUGACAUUUGAACACAGAGAAAGAAUGUUUAACCGACUCCAGGGAACAUGCUUCAAAGGACUUAAUGUUCUCAAGCAAUGUUGAGUUGGC", "bound/input enrichment [ratio]": 0.0946}
{"Strand": "AAGUAUUCCUCGGGAUGUUUUUAUAUAAAUUAUGUUUUGGAAUAGAACAUAAAUGACUUUGAGUCCGGAUAAGGAUGAUAGGAUGGGUGCUGGAGAUGCCCUGCCUUGCUUAUUUGUUUC", "bound/input enrichment [ratio]": 0.415}
{"Strand": "GUGGAGGCCCUUUGUGCUGAACACCAAAUCAACCUAAUUAAGGUUGAUGACAACAAGAAACCCGGAGAAUGGGUAGGCCUUUGUAAAAUUGACAGAGAGGGGAAACCCCGUAAAGUGGUU", "bound/input enrichment [ratio]": 0.146}
{"Strand": "AUAUCUACAUGCUGUCAGUGAGGCUCCAGGAGGCUUUCCUAACCCUGGGAAGUUAUUUGGGCACCGCGCUCUAUGUUUAAUAAAGGUUUUUUAAUAGAUGUUUUAUUCAGUACAUCUUCC", "bound/input enrichment [ratio]": 1.2}
{"Strand": "CGUGGGAAAACUAGAGCUGAAACAAUGGGACCCAUGGGUUGGAUGAAGUGUCCUCUUGCCCGCACCAAUAAAAGAUUUCUAAUUAACACAAUUAAAAACACAUUGCCCUCUCAUAAAGAG", "bound/input enrichment [ratio]": 0.78}
{"Strand": "AGCAUGAAUAUGAAGAGCAGGUUUGAUAUAAAAUCAAUGGCAGGGAAUAUCAUUCCUGCUACCGCUACUACUAAUGCAGUGAUCGCCGGCUUGAUAGUGUUGGAAGGAUUAAAGAUUUUA", "bound/input enrichment [ratio]": 0.503}
{"Strand": "GAACUGGUGGACUACAUUACAAUAAGCAGAGGCUGUUUGACAGAGCAGACUUACCCUGAAGCCGUCCGAAUGGUAUCUUGCAAUAUAUUCAGAACUCUCCCUCCUAGUGACAGCAAUGAA", "bound/input enrichment [ratio]": 0.268}
{"data": "Sample 2", "target": "CRIPT, C-terminal peptide", "method": "DHFR complementation, deep sequencing", "sample": "yeast", "setting": "single substitutions, model-inferred values", "reference": "wild type", "direction": "higher = weaker binding", "starting sequence": "ERBIN, PDZ domain 1 (human); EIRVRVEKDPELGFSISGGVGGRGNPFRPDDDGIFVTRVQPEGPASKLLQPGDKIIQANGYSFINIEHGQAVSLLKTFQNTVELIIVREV; partner TKNYKQTSV"}
{"Substitution": "N80C", "binding free energy change [kcal/mol]": 0.0812}
{"Substitution": "E89A", "binding free energy change [kcal/mol]": 0.121}
{"Substitution": "K54Q", "binding free energy change [kcal/mol]": 0.0811}
{"Substitution": "K76A", "binding free energy change [kcal/mol]": 0.925}
{"Substitution": "V20E", "binding free energy change [kcal/mol]": -0.11}
{"Substitution": "N25K", "binding free energy change [kcal/mol]": 1.1}
{"Substitution": "V6F", "binding free energy change [kcal/mol]": 0.949}
{"Substitution": "I86Q", "binding free energy change [kcal/mol]": 1.04}
{"data": "Sample 3", "target": "Histone acetyltransferase KAT6A, both winged helices, GST fusion (KAT6A, Homo sapiens, UniProt Q92794, residues 1-181)", "method": "protein binding microarray", "form": "double-stranded DNA, one strand shown", "sample": "in vitro", "tested at": "not given", "setting": "8-mer, flanks averaged, mean of 2 arrays, mostly near background", "reference": "not given", "direction": "higher = stronger binding", "Target sequence (chain)": "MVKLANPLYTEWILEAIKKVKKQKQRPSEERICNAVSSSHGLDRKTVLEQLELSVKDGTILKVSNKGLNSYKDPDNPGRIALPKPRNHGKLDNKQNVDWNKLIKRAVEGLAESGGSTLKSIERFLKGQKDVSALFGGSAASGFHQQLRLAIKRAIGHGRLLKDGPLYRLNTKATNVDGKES"}
{"Strand": "AGTGGTCA", "E-score": -0.067}
{"Strand": "GCGAGGAC", "E-score": 0.00375}
{"Strand": "ATGATAAG", "E-score": -0.151}
{"Strand": "ACGGGTGC", "E-score": 0.225}
{"Strand": "CAGGCTAA", "E-score": -0.205}
{"Strand": "CTAATAAG", "E-score": -0.114}
{"Strand": "ACGTTATC", "E-score": -0.159}
{"Strand": "TACGAAAA", "E-score": -0.116}
{"data": "Mixed results", "starting sequence": "PafA, mature enzyme, eGFP fusion (Elizabethkingia meningoseptica, UniProt Q9KJX5); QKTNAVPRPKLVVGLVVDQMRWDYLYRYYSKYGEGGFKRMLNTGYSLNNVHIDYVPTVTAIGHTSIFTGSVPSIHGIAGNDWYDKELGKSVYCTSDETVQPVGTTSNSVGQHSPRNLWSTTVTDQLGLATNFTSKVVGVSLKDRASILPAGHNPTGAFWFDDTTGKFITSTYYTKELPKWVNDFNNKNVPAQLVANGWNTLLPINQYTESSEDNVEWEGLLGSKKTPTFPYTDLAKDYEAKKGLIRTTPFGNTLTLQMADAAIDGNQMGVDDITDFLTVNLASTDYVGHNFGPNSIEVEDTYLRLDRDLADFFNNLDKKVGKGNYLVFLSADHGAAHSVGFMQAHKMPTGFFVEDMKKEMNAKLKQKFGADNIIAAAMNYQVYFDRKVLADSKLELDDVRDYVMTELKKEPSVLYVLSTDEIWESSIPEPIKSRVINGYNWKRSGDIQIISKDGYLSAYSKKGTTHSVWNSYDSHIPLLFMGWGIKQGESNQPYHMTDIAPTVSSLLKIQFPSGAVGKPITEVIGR"}
{"Substitution": "R39G", "target": "tungstate, free oxyanion", "assay": "microfluidic competitive inhibition", "test system": "in vitro, cell-free expressed", "conditions": "not given, derived from inhibition constants, unchanged parent 2230 nM", "scale": "lower = stronger binding", "endpoint": "oxyanion analog dissociation constant", "result": "1.43 µM"}
{"note": "Some of these lines once more (mixed results):"}
{"Substitution": "R39G", "target": "tungstate, free oxyanion", "assay": "microfluidic competitive inhibition", "test system": "in vitro, cell-free expressed", "conditions": "not given, derived from inhibition constants, unchanged parent 2230 nM", "scale": "lower = stronger binding", "endpoint": "oxyanion analog dissociation constant", "result": "1.43 µM"}
